# Assay results from different studies.
Structure (SMILES),tested on,test,test system,conditions,how to read,measurement,result
Cc1ccc2nc(Cl)c3cc(C(=O)NCCCN4CCC(C)CC4)sc3c2c1,Vero-E6,CellTiter-Glo ATP,,"concentration not given, 72 h, retest 8-point duplicates","reference: DMSO 0%, hyamine -100%, more negative, more toxic",cytotoxicity efficacy,0%
COc1cccc(-c2cc(F)ccc2[C@H]2Cc3nc(N)nc(C)c3C(=O)N2)n1,human coronavirus OC43,virus-induced cell killing,MRC-5,screen,,maximum inhibition,27.8%
Cc1cn([C@H]2O[C@@H](CO[P@@](=O)(N[C@@H](C)C(=O)OC(C)C)Oc3ccccc3)[C@H](O)[C@H]2F)c(=O)[nH]c1=O,,measured: grade 1/2,human,50 mg,,patients with creatine kinase elevation,0%
C[C@]1(O)C[C@@](N)(c2ccc(-c3nc4n(c3-c3ccccc3)COc3ccncc3-4)cc2)C1,,,"human, advanced or metastatic solid tumours","20 mg once daily, phase I dose escalation",,patients with Hyperglycemia TEAE,16.7%
COc1ncnn2ccc(-c3cnc4nc(C)n(Cc5nnc([C@@H](C)F)o5)c4c3)c12,,,human,"oral, dose not given, grade 5",,patients with stomatitis,0%
C[C@H]1C[C@H]2[C@@H]3CCC4=CC(=O)C=C[C@]4(C)[C@H]3C(=O)C[C@]2(C)[C@@]1(O)C(=O)CO,human coronavirus OC43,virus-induced cell killing,MRC-5,screen,,maximum inhibition,10.7%
Cn1nc(NS(C)(=O)=O)c2c(Cl)ccc(-n3c([C@H](Cc4cc(F)cc(F)c4)NC(=O)Cn4nc(C(F)F)c5c4C(F)(F)[C@@H]4C[C@H]54)nc4nc(OCCC(F)(F)F)ccc4c3=O)c21,,measured: total cholesterol grade 1 increase,human,"400 mg once daily, powder in bottle",,patients with laboratory abnormality,0%
C=CC(=O)Nc1cc(Nc2nccc(Nc3cc(Cl)c(F)cc3C(C)(C)O)n2)c(OC)cc1N1CC[C@@H](N(C)C)C1,,,human patients,"oral, 400 mg, treatment-emergent adverse events",,patients with decreased appetite,45%
Cn1cncc1-c1c(F)cncc1NC(=O)c1c(N)nn2cc(F)cnc12,,,human patients,"oral, 150 mg twice daily, 4 days on 3 days off",,patients grade ≥3 Lymphocyte count decrease,25%
CN(C)C(=O)c1cc2cnc(Nc3ccc(N4CCNCC4)cn3)nc2n1C1CCCC1,,measured: pulmonary embolism,"human, HR+/HER2− advanced breast cancer","oral, dose not given, grade 3, CTCAE v4.03",,patients with adverse event,1.5%
Clc1ccccc1C1(c2ccnc(-c3ccccc3)n2)CCNCC1,Vero-E6,CellTiter-Glo ATP,,"concentration not given, 72 h, first round 5-point","reference: DMSO 0%, hyamine -100%, more negative, more toxic",cytotoxicity efficacy,0%
CNC(=O)c1cc(Oc2ccc(NC(=O)Nc3cc(C(C)(C)C)nn3-c3ccc4ncccc4c3)c(F)c2)ccn1,,,"human, trial","oral, 150 mg twice daily, starting dose",,patients with related serious Cardiomyopathy AE,3%
O=C1Nc2cc3[nH]nc(-c4ccncc4)c3cc2CN1Cc1ccccc1,,CTCAE v4.03,"human, relapsed or refractory advanced solid tumours","intravenous, 4.8 mg/kg",,patients with QTc prolongation,0%
N[C@@H]1c2ccccc2OC12CCN(c1cnc3c(N4CCCc5ncccc54)n[nH]c3n1)CC2,,measured: Diarrhea,human advanced or metastatic solid tumours,"oral, 60 mg once daily, phase Ia pooled cohort",,patients with treatment-related adverse event,52%
COc1ccc(-c2c(-c3ccc(C#N)c(F)c3)nc(N3CCC(N)CC3)n(C)c2=O)cc1F,,measured: portal vein thrombosis,human patients,"oral, 60 mg, dose expansion",,patients with serious TEAE,0%
C[C@@H]1OC(=O)NN=C1c1ccc(-c2ccc(F)cc2)c(C(F)(F)F)c1,,"phase I trial, measured: Cough all grades",human patients,5 mg loading then 0.25 mg daily,,patients with adverse event,0%
